Measurements collected from several papers.
Each numbered part is a random draw from the data of one study; scales do not carry over between parts. Changes are numbered by the printed parent chain.

Series 1 — technique: universal PBM; form: double-stranded DNA, one strand shown; sample: in vitro; concentration: 600 nM; reading: higher = stronger binding; measurement: E-score
Target: Sal-like protein 4, full length isoform A (SALL4, Homo sapiens, UniProt Q9UJQ4, residues 1-1053)
Chain of UniProt Q9UJQ4 (whole entry, looked up): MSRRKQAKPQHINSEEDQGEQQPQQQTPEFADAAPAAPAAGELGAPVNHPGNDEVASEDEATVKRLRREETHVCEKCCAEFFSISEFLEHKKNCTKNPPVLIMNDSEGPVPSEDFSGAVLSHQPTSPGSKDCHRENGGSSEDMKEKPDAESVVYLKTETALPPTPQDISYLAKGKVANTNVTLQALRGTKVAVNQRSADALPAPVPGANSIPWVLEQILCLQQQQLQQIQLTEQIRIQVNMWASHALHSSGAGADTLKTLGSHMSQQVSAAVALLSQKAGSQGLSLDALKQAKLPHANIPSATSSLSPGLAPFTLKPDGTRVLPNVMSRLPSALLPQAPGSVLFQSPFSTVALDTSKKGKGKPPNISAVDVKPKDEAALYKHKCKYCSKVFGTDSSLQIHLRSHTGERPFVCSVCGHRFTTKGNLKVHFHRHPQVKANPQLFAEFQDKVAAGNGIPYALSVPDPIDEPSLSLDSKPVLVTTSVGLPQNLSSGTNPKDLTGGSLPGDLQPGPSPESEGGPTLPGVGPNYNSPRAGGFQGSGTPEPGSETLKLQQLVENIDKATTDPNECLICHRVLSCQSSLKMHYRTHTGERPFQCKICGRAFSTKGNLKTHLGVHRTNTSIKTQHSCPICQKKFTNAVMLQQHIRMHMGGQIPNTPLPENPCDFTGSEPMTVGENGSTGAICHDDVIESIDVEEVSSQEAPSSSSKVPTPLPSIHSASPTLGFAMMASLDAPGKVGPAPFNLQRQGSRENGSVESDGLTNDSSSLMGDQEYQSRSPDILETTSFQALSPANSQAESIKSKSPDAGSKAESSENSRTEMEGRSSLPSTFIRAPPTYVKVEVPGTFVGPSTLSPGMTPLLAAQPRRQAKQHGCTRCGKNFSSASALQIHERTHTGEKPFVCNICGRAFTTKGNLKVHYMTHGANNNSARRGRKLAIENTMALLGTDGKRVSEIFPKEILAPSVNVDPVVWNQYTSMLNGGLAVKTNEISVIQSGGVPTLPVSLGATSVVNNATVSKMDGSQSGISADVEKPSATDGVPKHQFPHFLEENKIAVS
Notes: 8-mer, flanks averaged, mean of replicates
ACGAAATA: 0.226
GCTTTTCC: 0.0215
CCGGAAAG: -0.17
ATCGGCAC: -0.114
ATGGGTTC: -0.142
GCGTGTCA: -0.0181
GGATCAAC: 0.0668
CAGCAACA: 0.106
CAATGGGA: -0.0418
ATGTCCGA: -0.069
AGTTGGAC: 0.016
CTTCTTGC: -0.0624
AAACACCG: 0.0255
GCAATGTA: 0.128
AACTCAAT: 0.179
AATCTGGT: 0.0179
ATGTTCCC: -0.0188
GTCGCTTA: -0.0469
CGCAGTGC: -0.236
CGATTCAA: -0.00343
CTGCCAAA: -0.0702
ATAAACAG: 0.311

Series 2 — target: CCND2, cyclin fold, Cln2 fusion (human); technique: yeast growth competition, sequencing; sample: yeast; notes: weak parent motif; baseline: not given; reading: higher = stronger binding; measurement: normalised enrichment score
Parent: SLBP docking peptide (human); ARYKRKLLINDFG; partner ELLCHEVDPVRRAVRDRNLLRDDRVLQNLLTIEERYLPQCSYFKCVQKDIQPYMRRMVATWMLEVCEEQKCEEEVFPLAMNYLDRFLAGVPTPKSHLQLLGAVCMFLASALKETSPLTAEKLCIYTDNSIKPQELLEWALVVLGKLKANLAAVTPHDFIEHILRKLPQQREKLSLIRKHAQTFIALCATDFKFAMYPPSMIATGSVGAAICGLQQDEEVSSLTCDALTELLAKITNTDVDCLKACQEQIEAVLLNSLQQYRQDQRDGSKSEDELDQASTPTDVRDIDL
G13S: -0.187
D11G: 0.044
N10L: 0.752
K4D: 0.089
K6R: 0.226
G13R: 0.0698
L7K: 0.173
D11C: 0.276
A1K: -0.304
I9L: 0.397
G13L: -0.0973
K6F: -0.109
L7F: 0.0671
N10Q: 0.458
F12S: -0.0221
D11I: 0.00711
L8T: 0.154
G13T: -0.0277
F12E: 0.0257

Series 3 — technique: protein-binding microarray; form: double-stranded DNA, one strand shown; sample: in vitro; concentration: 2540 nM top; notes: 60-bp whole probe; with: salmon DNA 0.4 mg/ml; baseline: random background probes; reading: higher = stronger binding; measurement: fitted relative affinity; all sequences stand within: GCCTAGCAC … GTCTTGATTCGCTTGACGCTGCTG
Target: Interferon regulatory factor 3, full length, phosphomimetic (IRF3, Homo sapiens, UniProt Q14653, residues 1-427, S386D/S396D/S398D/S402D/T404D/S405D)
Target sequence (chain): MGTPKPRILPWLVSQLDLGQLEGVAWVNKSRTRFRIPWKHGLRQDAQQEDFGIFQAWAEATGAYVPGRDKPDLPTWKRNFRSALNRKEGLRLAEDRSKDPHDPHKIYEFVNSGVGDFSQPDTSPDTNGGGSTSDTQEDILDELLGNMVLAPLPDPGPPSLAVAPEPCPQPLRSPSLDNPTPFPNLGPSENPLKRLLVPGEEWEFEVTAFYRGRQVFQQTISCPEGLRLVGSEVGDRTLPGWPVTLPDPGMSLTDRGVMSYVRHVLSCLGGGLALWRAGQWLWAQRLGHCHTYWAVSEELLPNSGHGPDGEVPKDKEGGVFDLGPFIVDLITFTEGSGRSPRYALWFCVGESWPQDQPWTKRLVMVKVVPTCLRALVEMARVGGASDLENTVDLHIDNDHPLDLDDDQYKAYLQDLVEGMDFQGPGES
AGACCTTCACCTCTCTGTCCGTGCTAG: 0.0825 z-score
AGGACTCGAATCCTGCAGGGGTGCTAG: -0.144 z-score
TTAGGACTGCTTCTCCTTTTGTGCTAG: 0.44 z-score
TTCATTATTGTTTCCTTCCTGTGCTAG: 4.46 z-score
GACGGGTTCGGGTATCGGGACGTGCTA: 0.279 z-score
TCAGGTATCCTTTTCCTTTAGTGCTAG: 8.64 z-score
CACGGACTGGGGTTTCGGGACGTGCTA: 0.55 z-score
TCAGTTTCTGATATGGTACTGTGCTAG: 4.63 z-score
TCACATACTAGTTTCCAACTGTGCTAG: 3.85 z-score
TTAGGTTCCGGTATCGGTTAGTGCTAG: 4.84 z-score
TCAATATTCTGCTTTGCACTGTGCTAG: 0.212 z-score
GACGCTCTCGGTATCGGGACGTGCTAG: 0.863 z-score
GTGTATATGACAATGATGTTGTGCTAG: -0.21 z-score
GTGTATATGTGATTAAAATAGTGCTAG: -0.0984 z-score
TTAGATTTCAGTTCCGCTTAGTGCTAG: 2.98 z-score
TTAGGACTGGGACTGGGGTAGTGCTAG: -1 z-score
GAAGGTTTCGGTTTCGGGACGTGCTAG: 10.6 z-score
TTAGATATCAGACTGGATCAGTGCTAG: 0.0438 z-score
TTAGGTTCCGTTTTCGGTTAGTGCTAG: 6.87 z-score
TTTCTGATCCATTTTGGTTTGTGCTAG: 5.48 z-score
GACGGTTTCGGGACTGGCGACGTGCTA: 4.8 z-score
GACGATACCAGACTGGAGACGTGCTAG: 0.218 z-score
TCACATTTCACAGTTAAACTGTGCTAG: 1.7 z-score

Series 4 — technique: aptamer microarray, sandwich; form: DNA with 2'F-ANA; sample: in vitro; concentration: 200 nM; with: Cy3 exosite-II aptamer, 400 nM; reading: higher = stronger binding; measurement: mean fluorescence intensity; strand: GGTTGGTGTGGTTGG
Target: Prothrombin, mature alpha-thrombin (F2, Homo sapiens, UniProt P00734)
Notes: whole 15-mer aptamer, many near background
2'F-ANA at 2 4 8 11 15: 305 a.u.
2'F-ANA at 1 4 5 6 7 9: 62.4 a.u.
2'F-ANA at 4 5 8 9 11 13 15: 50.7 a.u.
2'F-ANA at 1 3 5 6 7 8 12 14: 49.7 a.u.
2'F-ANA at 1 2 3 4 8 10 11 12 15: 73.9 a.u.
2'F-ANA at 1 2 3 4 5 6 7 10 14 15: 47.5 a.u.
2'F-ANA at 3 5 7 9 10 14: 62.5 a.u.
2'F-ANA at 1 2 3 4 5 6 10 12: 86.1 a.u.
2'F-ANA at 2 3 4 11: 575 a.u.
2'F-ANA at 1 2 3 5 8 10 11 13: 49.2 a.u.
2'F-ANA at 6 11 13 14 15: 141 a.u.
2'F-ANA at 1 2 4 7 11 12: 226 a.u.
2'F-ANA at 2 5 11 13 15: 55 a.u.
2'F-ANA at 1 3 8 10 11 12 13 14 15: 91.3 a.u.
2'F-ANA at 1 2 3 4 5 6 8 9 12 14 15: 75.6 a.u.
2'F-ANA at 1 3 4 7 9 10 12: 87 a.u.
2'F-ANA at 1 5 8 9 10 11 13 14: 50.2 a.u.
2'F-ANA at 1 2 3 4 5 8 15: 62.1 a.u.
2'F-ANA at 1 3 5 9 13 15: 50.7 a.u.
2'F-ANA at 2 5 7 9 10 12: 52.8 a.u.
2'F-ANA at 1 4 5 8 9: 58.6 a.u.
2'F-ANA at 2 8 9 10 11 12 13 15: 146 a.u.

Series 5 — technique: RNA Bind-n-Seq; form: RNA; sample: in vitro; concentration: 200 nM; notes: whole 134-nt RNA, ends assumed; with: 150 mM KCl; baseline: input library; reading: higher = stronger binding; measurement: log2 enrichment
Target: Ras GTPase-activating protein-binding protein 1, full length (G3BP1, Homo sapiens, UniProt Q13283)
Chain of UniProt Q13283 (whole entry, looked up): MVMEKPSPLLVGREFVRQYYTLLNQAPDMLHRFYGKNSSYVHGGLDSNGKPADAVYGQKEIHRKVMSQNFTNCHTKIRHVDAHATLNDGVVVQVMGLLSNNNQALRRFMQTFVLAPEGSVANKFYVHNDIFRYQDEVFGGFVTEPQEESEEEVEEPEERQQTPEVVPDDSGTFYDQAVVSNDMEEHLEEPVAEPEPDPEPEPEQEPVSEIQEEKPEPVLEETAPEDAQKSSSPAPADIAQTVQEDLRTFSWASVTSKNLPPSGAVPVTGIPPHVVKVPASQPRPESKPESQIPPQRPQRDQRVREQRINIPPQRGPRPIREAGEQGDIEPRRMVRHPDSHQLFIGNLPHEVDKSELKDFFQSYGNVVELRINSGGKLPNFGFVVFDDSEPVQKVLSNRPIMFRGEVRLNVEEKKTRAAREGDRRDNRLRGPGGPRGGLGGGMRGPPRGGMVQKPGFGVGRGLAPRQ
All sequences stand within: GGGAGUUCUACAGUCCGACGAUC … UGGAAUUCUCGGGUGUCAAGG
UGGGAGGUGGACUUUGUUUAUUUUUUUAGCUCAUUUCCAGGGGUGGGAAUUUUUUUUUAAUAUGUGUCAUGAAUAAAGUUGUUUUUGAAA: -0.251
UGGACGAUGAAGAGGAAACAAUUGAAGAGGAGGAAGCAAAUGAAGGCGUUGUGGACCACCAAACAGAACUUUCUAAUUUAGCCAAGGAAG: 0.436
UUACGAUUAUAUCACCCGGACACACAUCAUGCUUAAGAUUCAACUGGGAGCAUACCAGGGAUGCUCUCUAACGUAAUCAAGGGAAGGUUC: -1.48
UGGGAGGUGGAUUUUGUUUAUUUUUUUAGCUCAUUUCCAGGGGUGGGAAUUUUUUUUUAAUAUGUGUCAGGAAUAAAGUUGUUUUUGAAA: 0.365
UGGCCCUGGUGGCAUGCGGGGAGGAAGAGGUGGCCUCAUGGAUGGUGGUGGUCCCGGUGGAAUGUUCAGAGGUGGCCGUGGUGGAGACAG: 0.526
AAGUCCUGUGCUACACAUCGUAUGUACCGAAUCGGGGUUUUGGGUUUUGGUUUUGGAAAGUAUUAUGUUACGCCGUUCGGAUCUGCACUU: -0.789
CACAGACAACACGCACCCACACACACACAGAGGGAAGGGGUUGGGAUGGGGACAGGGUGCACAGCAGGGCGGGGUAGGACCCCAGCCCCU: 1.44
UCCUCAAGUCCUGUGCUACACAUCGUAUGUACCGAAUCGGGGUGGUGGUGGGAAAGUAUUAUGUUACGCCGUUCGGAUCUGCACUUCCAG: 0.545
UUGCAGAUGAGCUUAUGGGGGGCAAUCUUAAAAAGUCCACAGCAGAUGCAUCCGGCUCGAGGGGCCAUCAGCUUUGAAUAAAUGCUUGUU: -0.0543
GUCCUGUGCUACACAUCGUAUGUACCGAAUCGGGAAAAAGGGUUUGGGAAAAAAAGGGAAAGUAUUAUGUUACGCCGUUCGGAUCUGCAC: -0.767
UUUGUAGAGCAGCCCGACGGCCAUGGAGGCUGAAGAGACGAUGGAAUGCCUUCAGGAGUUCCCUGAACAUCAUAAAAUGAUCCUCGACCG: -0.354
UCAAGUCCUGUGCUACACAUCGUAUGUACCGAAUCGGUUGGGGUUGGGUUGGGGAAAGUAUUAUGUUACGCCGUUCGGAUCUGCACUUCC: 0.876
CAAGUCCUGUGCUACACAUCGUAUGUACCGAAUCGGAGGUUUUUGGUUUUUUUGGAAAGUAUUAUGUUACGCCGUUCGGAUCUGCACUUC: -1.1
GCAGGAAGUAAAAACAAAUGGAAAUGCUUCGGAUAGUGGCAGGGGUGGGGGUUGCGAAGGAAAGGGUGGGAUGGGAGUGGGUAAAGAGUU: 0.693

Single results of other studies
PhoQ, residues 284 288 289 292 302 303 TLASMF — fold induction (PhoP, residues 12 14 15 18 19 GQALL (Escherichia coli, UniProt P23836); Sort-seq, measured: YFP reporter; E. coli; PhoQ-PhoP variant library, with: 10 µM Mg2+; baseline: high Mg2+ state, higher = stronger signaling): 6.37
